Results from different studies.
Each numbered part is a random draw from the data of one study; scales do not carry over between parts. Changes are numbered by the printed parent chain.

Set 1 — method: protein-binding microarray; form: double-stranded DNA, one strand shown; medium: in vitro; tested at: 2200 nM top; notes: 60-bp whole probe; added: salmon DNA 0.4 mg/ml; relative to: random background probes; reading: higher = stronger binding; all sequences stand within: GCCTAGCAC … GTCTTGATTCGCTTGACGCTGCTG
Target: Interferon regulatory factor 7, full length, phosphomimetic (IRF7, Homo sapiens, UniProt Q92985, residues 1-503, S471D/S472D/S475D/S476D/S477D/S483D/S484D/S487D)
Target sequence (chain): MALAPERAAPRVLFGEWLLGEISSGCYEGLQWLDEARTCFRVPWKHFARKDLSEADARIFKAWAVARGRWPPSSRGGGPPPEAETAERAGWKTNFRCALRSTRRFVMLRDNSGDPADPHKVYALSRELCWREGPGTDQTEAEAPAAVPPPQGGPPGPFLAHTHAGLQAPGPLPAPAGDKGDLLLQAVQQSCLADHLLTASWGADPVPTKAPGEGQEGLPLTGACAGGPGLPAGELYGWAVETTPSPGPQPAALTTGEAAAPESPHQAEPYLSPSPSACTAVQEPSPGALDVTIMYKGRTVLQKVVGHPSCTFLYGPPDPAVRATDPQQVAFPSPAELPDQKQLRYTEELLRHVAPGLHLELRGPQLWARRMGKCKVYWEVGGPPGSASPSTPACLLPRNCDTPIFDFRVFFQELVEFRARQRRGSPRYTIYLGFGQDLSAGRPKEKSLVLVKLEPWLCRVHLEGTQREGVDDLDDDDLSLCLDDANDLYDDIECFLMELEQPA
Under “fitted relative affinity”, `GACGGTTTCGGGTATCGGGACGTGCTA` is recorded as 6.07 z-score.
`GACGAACTCAGACTGGAGACGTGCTAG`: “fitted relative affinity” -0.147 z-score.
Under “fitted relative affinity”, `GTCGATTTCGGGTTTCGAGACGTGCTA` is recorded as 6.34 z-score.
Under “fitted relative affinity”, `AACTTGGCAGGAGCGAATGGGTGCTAG` is recorded as -0.495 z-score.
`TACGGACTGGGTATCGGGACGTGCTAG` — result for “fitted relative affinity”: -0.828 z-score.
`GAAAAATCTGGAACTAACAGGTGCTAG` — result for “fitted relative affinity”: -0.685 z-score.
Under “fitted relative affinity”, `TCAGGACTGGGACTGGGTTAGTGCTAG` is recorded as -0.636 z-score.
`TGAGGTCTCCTACTGCTTTAGTGCTAG`: “fitted relative affinity” 0.213 z-score.
Under “fitted relative affinity”, `GACGGACTGAGGACTGGGGACGTGCTA` is recorded as -0.958 z-score.
Under “fitted relative affinity”, `TTAGATCTCTGTATCGATTAGTGCTAG` is recorded as 0.219 z-score.
`GCCGGTTTCGGGTATCGGGACGTGCTA` — result for “fitted relative affinity”: 7.42 z-score.

Set 2 — target: CCND3, cyclin fold, Cln2 fusion (human); method: yeast growth competition, sequencing; medium: yeast; notes: weak parent motif; relative to: not given; reading: higher = stronger binding
Parent: RBL1 docking peptide (human); GSAKRRLFGEDPP
`G9S`: “normalised enrichment score” 0.166.
`D11H`: “normalised enrichment score” 0.0538.
`L7D` — result for “normalised enrichment score”: 0.119.
`G1C` — result for “normalised enrichment score”: 0.0877.
For `L7F`, “normalised enrichment score” read 0.0871.
`A3S` — result for “normalised enrichment score”: 0.163.
Under “normalised enrichment score”, `D11I` is recorded as 0.171.
`L7R`: “normalised enrichment score” 0.109.
`G1D` — result for “normalised enrichment score”: 0.107.

Set 3 — method: DHFR PCA, deep sequencing; medium: yeast; added: (+)-ABA 58 µM; relative to: wild-type fitted maximum; reading: higher = stronger binding
Target: ABI1, truncated, D143A, DHFR fusion (Arabidopsis thaliana)
Notes: methotrexate growth selection, single substitutions
Parent: PYL1, truncated, DHFR fusion (Arabidopsis thaliana); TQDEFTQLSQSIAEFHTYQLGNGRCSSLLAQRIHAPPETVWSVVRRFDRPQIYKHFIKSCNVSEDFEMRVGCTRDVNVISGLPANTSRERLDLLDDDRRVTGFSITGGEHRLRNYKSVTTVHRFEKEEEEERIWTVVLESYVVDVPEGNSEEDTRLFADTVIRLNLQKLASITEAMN; partner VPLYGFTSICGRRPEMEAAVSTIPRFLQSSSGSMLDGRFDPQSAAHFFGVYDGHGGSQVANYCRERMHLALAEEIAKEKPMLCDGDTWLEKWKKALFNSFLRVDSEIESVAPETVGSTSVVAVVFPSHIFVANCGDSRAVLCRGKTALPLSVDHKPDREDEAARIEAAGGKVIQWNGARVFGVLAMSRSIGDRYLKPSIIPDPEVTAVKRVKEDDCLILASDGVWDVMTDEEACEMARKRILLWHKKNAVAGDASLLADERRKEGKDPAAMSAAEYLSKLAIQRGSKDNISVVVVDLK
For `R45P`, “relative binding score” read -11.3%.
Under “relative binding score”, `G23W` is recorded as 53.8%.
`K168E` — result for “relative binding score”: 56.2%.
Under “relative binding score”, `A13E` is recorded as 89.9%.
`G108S` — result for “relative binding score”: 10.1%.
Under “relative binding score”, `F66K` is recorded as 76%.
`G108Y` — result for “relative binding score”: -22.1%.
`L91Q`: “relative binding score” 12%.
Under “relative binding score”, `S63H` is recorded as 82.7%.
`R163S`: “relative binding score” 70.6%.

Other studies, line by line
The fold induction of `PhoQ, residues 284 288 289 292 302 303 SSLVEF` is reported as 6.1 (PhoP, residues 12 14 15 18 19 NMSSL (Escherichia coli, UniProt P23836); Sort-seq, refers to: YFP reporter; E. coli; PhoQ-PhoP variant library, added: 10 µM Mg2+; relative to: high Mg2+ state, higher = stronger signaling).

A few entries again (set 2):
`G1C` — result for “normalised enrichment score”: 0.0877.
For `L7F`, “normalised enrichment score” read 0.0871.
`A3S` — result for “normalised enrichment score”: 0.163.
Under “normalised enrichment score”, `D11I` is recorded as 0.171.
`L7R`: “normalised enrichment score” 0.109.
